Measurements collected from several papers.
Compare with care: the assays were run in different laboratories.
ALK L1196M: ALK tyrosine kinase receptor (ALK, Homo sapiens, UniProt Q9UM73, L1196M)
ALK C1156Y: ALK tyrosine kinase receptor (ALK, Homo sapiens, UniProt Q9UM73, C1156Y)
ALK: ALK tyrosine kinase receptor (ALK, Homo sapiens, UniProt Q9UM73)

SMILES	target	effect on	technique	concentration	reference	remaining binding [%]
CNC(=O)C1CCN(c2cc(C)c(F)cc2NC(=O)c2ccc(-c3cc(O)ccc3C)c(C)c2)CC1	ALK L1196M	binding	competition with immobilised ligand	1 µM		100
COc1c(Cl)cccc1Nc1c(-c2ccncc2C#C[C@@]2(C)CCCN2C(=O)/C=C/CN(C)C)[nH]c2c1C(=O)NCC2	ALK C1156Y	cell-free assay	competition with immobilised ligand	3 µM		78
Nc1ncc2c(n1)-c1c([nH]c3ccc(C4=CCOCC4)cc13)CCC2	ALK C1156Y	binding	competition with immobilised ligand	1 µM		100
C=CC(=O)N1CCCC(n2c(=O)c3ncccc3n(Cc3ccc(Oc4ccccc4)cc3)c2=O)C1 (stereo not drawn)	ALK C1156Y	cell-free assay	competition with immobilised ligand	1 µM		89
CCN1CCN(Cc2ccc(C(=O)Nc3ccc(C)c(NCc4cnc5[nH]ccc5c4OC)c3)cc2C(F)(F)F)CC1	ALK	binding	competition with immobilised ligand	1 µM		44
CC(C)=CC1OC(C)(C)C2C=C3C(=O)C(Cl)=CC(O)C3C3C(O)C4OC4C(=O)C132 (stereo not drawn)	ALK C1156Y	cell-free assay	competition with immobilised ligand	10 µM		73
Cc1cnc2nc1Nc1cccc(c1)COC/C=C/COCc1cc(ccc1OCCN1CCOCC1)N2	ALK	binding		0.1 µM		74
Cc1ccc(-c2c(/C=C(\C#N)C(=O)NC(C)C)n(CCCO)c3ncnc(N)c23)cc1	ALK	cell-free assay	competition with immobilised ligand	1 µM		53
CNC1C[S+]2CC[S+]3CC[S+](C1)[Ru-4]321([N]=C=S)[n]2c3ccc(OC)cc3c3c4c(c5cc(F)c[n+]1c5c32)C(=O)NC4=O (stereo not drawn)	ALK L1196M		KinomeScan	0.1 µM	untreated	86
CN1CCN(Cc2ccc(NC(=O)c3cccc(C#Cc4cnc(N)c5ncccc45)c3)cc2C(F)(F)F)CC1	ALK	cell-free assay	competition with immobilised ligand	0.5 µM		60
CC(=O)N1c2ccc(-c3ccc(CNC(=O)c4cn5cc(-c6cnc(N)nc6)nc(N6CCOCC6)c5n4)cc3)cc2CC[C@@H]1C	ALK		KINOMEscan	10 µM		70
C=CC(=O)N1CCc2ccc(-n3c(=O)ccc4cnc5ccc(-c6cnn(C)c6)cc5c43)cc21	ALK		KINOMEscan	1 µM	DMSO control	100
